Measurements of several laboratories.
Numbers after ± are the reported error.
Target: Cytochrome P450 2D6 (CYP2D6, Homo sapiens, UniProt P10635)
Sequence of UniProt P10635 (whole entry, looked up): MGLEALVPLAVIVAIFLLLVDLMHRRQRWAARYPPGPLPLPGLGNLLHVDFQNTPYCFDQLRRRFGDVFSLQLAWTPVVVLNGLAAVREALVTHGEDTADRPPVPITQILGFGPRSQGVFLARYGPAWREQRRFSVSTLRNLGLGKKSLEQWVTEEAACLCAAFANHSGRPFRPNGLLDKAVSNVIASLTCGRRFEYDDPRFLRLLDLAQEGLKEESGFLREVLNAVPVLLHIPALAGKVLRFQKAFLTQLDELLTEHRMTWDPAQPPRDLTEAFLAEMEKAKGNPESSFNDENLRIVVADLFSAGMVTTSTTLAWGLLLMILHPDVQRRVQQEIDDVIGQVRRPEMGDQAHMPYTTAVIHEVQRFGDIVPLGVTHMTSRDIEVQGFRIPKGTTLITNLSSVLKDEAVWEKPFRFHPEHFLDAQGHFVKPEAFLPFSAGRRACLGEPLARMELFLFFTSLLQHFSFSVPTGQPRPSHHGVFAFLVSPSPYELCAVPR

With CN(C(=O)n1cnc(-c2ccc[n+]([O-])c2)c1)C1CCCCC1 the remaining activity was 85.1% (inhibitor; pooled human liver microsomes; 0.1 to 30 µg/mL, together with: bufuralol; relative to: control).
For N#C[C@H](C[C@@H]1CCCNC1=O)NC(=O)[C@H](CC1CC1)NC(=O)c1cc2cccc(Cl)c2[nH]1, the fraction metabolised was < 1% (ISEF abundance scaling; 2 µM, pH 7.4).
C[C@@H](c1ccc2nccn2c1)n1nnc2ncc(-c3cnn(C)c3)nc21 gave a time-dependent inhibition of < 20% (human liver microsomes; 10 and 50 µM, 30 min preincubation, pH 7.4, together with: ± NADPH).
With CSc1ccccc1C(=O)NCCn1cc(C(=O)NCc2cccc(C)n2)c(=O)c2cc3c(cc21)OC(F)(F)O3 the IC50 was > 100 µM (enzyme activity, inhibitor; human liver microsomes; 20 min, 30 min NADPH preincubation, together with: dextromethorphan 10 µM).
For O=C(O)c1cc(-c2ccc(-c3cc[nH]n3)cc2)c2ccc(-c3ccc(C(F)(F)F)cc3)cc2c1, inhibition read “no inhibition” (10 µM).
For Cc1cc(C)c(CNC(=O)c2cc(Cl)c3c(c2C)O[C@@](C)([C@H]2CC[C@H](N(C)C)CC2)O3)c(=O)[nH]1, the CLint was 0.00644 µL/min/pmol (recombinant human CYP2D6; 0 and 30 min).
The Ki of N#Cc1ccc([C@H]2CCc3cncn32)c(F)c1 is reported as 2000 nM (inhibitor, measured: bufuralol 1'-hydroxylation; pooled human liver microsomes; pH 7.4, together with: bufuralol 5 µM).
O=C(Nc1c2c(cc3c1CCC3)CCC2)NS(=O)(=O)/C=C/c1nccs1 has an inhibition of < 0% (human liver microsomes; 2 µM, pH 7.4, together with: dextromethorphan).
CCNCc1cnn(-c2ccc(-n3ccc(Cl)c(Cl)c3=O)cc2)c1C(F)(F)F gave an IC50 of 39.3 µM (enzyme activity, inhibitor; human liver microsomes; 10 min).
For C[C@]1(c2nc3c(C(N)=O)cccc3[nH]2)CCCN1, “other enzymes contribution to metabolism” read 28% (human liver microsomes; 100 µmol/L, 30 min).
CSc1ccccc1C(=O)NCCn1cc(C(=O)NCc2cccc(C)n2)c(=O)c2cc3c(cc21)OCO3 gave an IC50 of 72.1 µM (enzyme activity, inhibitor; human liver microsomes; 20 min, 30 min NADPH preincubation, together with: dextromethorphan 10 µM).
C=CCN=C=S gave an inhibition of 75% (enzyme activity; human liver microsomes; concentration not given, 10 min, together with: dextromethorphan).
With C=CC(=O)Nc1cc(Nc2nccc(-c3cn(C)c4ccccc34)n2)c(OCC(F)(F)F)nc1N(C)CCN(C)C the intrinsic clearance was 0.3 µL/min/pmol (substrate depletion; recombinant human CYP; 1 µM).
C[C@H]1CN(C2COC2)CCN1c1ccc(Nc2cc(-c3ccnc(N4CCn5c(cc6c5CC(C)(C)C6)C4=O)c3CO)cn(C)c2=O)nc1 gave a remaining compound of 98.4 ± 6.7% (substrate; recombinant enzyme; 1 µM, 60 min).

A few entries again:
For O=C(O)c1cc(-c2ccc(-c3cc[nH]n3)cc2)c2ccc(-c3ccc(C(F)(F)F)cc3)cc2c1, inhibition read “no inhibition” (10 µM).
For Cc1cc(C)c(CNC(=O)c2cc(Cl)c3c(c2C)O[C@@](C)([C@H]2CC[C@H](N(C)C)CC2)O3)c(=O)[nH]1, the CLint was 0.00644 µL/min/pmol (recombinant human CYP2D6; 0 and 30 min).
